Measured values of several laboratories.
Every numbered part comes from another study and shows a few of its results, in no order.

Study 1
Target: Interferon regulatory factor 5, full length, phosphomimetic (IRF5, Homo sapiens, UniProt Q13568-2, residues 1-514, K96S/S451D/S453D/S456D/S462D)
Technique: protein-binding microarray
Form: double-stranded DNA, one strand shown
Sample: in vitro
Concentration: 250 nM
Setting: 60-bp whole probe
Added: salmon DNA 0.4 mg/ml
Relative to: random background probes
Direction: higher = stronger binding
Constant ends, left off below: GCCTAGCAC … GTCTTGATTCGCTTGACGCTGCTG
| Strand | log fluorescence |
| --- | --- |
| TTAGGGCTGGACACTGGGTTAGTGCTA | -0.758 z-score |
| GACTATCTCAGTTTCGAGACGTGCTAG | 5.11 z-score |
| CACGATCTCAGTTTCGAGACGTGCTAG | 4.75 z-score |
| TTAGAACTGAGTCTCGATGAGTGCTAG | 0.272 z-score |
| TTAGGTCTCCTTTTCCTCTAGTGCTAG | 0.217 z-score |
| GACGGTCTAGGTCTCGGGACGTGCTAG | -0.405 z-score |

Study 2
Target: Hepatocyte nuclear factor 3-beta, forkhead domain (FOXA2, Homo sapiens, UniProt Q9Y261, residues 142-269)
Technique: protein-binding microarray
Form: double-stranded DNA, one strand shown
Sample: in vitro
Concentration: not given
Setting: k-mer, scored over probes, only values ≥0.25
Direction: higher = stronger binding
Residues (chain): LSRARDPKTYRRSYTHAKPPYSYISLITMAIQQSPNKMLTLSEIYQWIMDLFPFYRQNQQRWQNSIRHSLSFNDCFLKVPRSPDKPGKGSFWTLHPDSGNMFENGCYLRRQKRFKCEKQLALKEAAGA
| Strand | E-score |
| --- | --- |
| ACATAATC | 0.315 |
| CCTGTTAC | 0.254 |
| ACACATAT | 0.37 |
| AGCATATA | 0.257 |

Study 3
Target: Histone acetyltransferase KAT6A, winged helix 2, GST fusion (KAT6A, Homo sapiens, UniProt Q92794, residues 85-181)
Technique: protein binding microarray
Form: double-stranded DNA, one strand shown
Sample: in vitro
Concentration: not given
Setting: 8-mer, flanks averaged, mean of 2 arrays, mostly near background
Relative to: not given
Direction: higher = stronger binding
Construct (chain): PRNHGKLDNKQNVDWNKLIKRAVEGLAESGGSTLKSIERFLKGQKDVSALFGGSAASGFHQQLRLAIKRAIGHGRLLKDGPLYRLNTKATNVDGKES
| Strand | E-score |
| --- | --- |
| GTGACCGA | -0.00477 |
| GTAGGGTA | -0.0702 |
| AAATCGTG | 0.124 |
| ACATGATC | -0.0823 |
| AAGTGCCA | 0.0403 |

Single results of other studies
| Substance | target | assay | test system | setting | scale | measurement | result |
| --- | --- | --- | --- | --- | --- | --- | --- |
| PhoQ, residues 284 288 289 292 302 303 AGGLSV | PhoP, residues 12 14 15 18 19 TPWLV (Escherichia coli, UniProt P23836) | Sort-seq, item: YFP reporter | E. coli | PhoQ-PhoP variant library, added: 10 µM Mg2+ | relative to: high Mg2+ state, higher = stronger signaling | fold induction | 0.498 |
